Results gathered from unrelated publications.
Every numbered part comes from another study and shows a few of its results, in no order.

Sample 1
Target: Protein C-ets-1 (ETS1, Homo sapiens, UniProt P14921, residues 1-441, full length assumed)
Chain of UniProt P14921 (whole entry, looked up): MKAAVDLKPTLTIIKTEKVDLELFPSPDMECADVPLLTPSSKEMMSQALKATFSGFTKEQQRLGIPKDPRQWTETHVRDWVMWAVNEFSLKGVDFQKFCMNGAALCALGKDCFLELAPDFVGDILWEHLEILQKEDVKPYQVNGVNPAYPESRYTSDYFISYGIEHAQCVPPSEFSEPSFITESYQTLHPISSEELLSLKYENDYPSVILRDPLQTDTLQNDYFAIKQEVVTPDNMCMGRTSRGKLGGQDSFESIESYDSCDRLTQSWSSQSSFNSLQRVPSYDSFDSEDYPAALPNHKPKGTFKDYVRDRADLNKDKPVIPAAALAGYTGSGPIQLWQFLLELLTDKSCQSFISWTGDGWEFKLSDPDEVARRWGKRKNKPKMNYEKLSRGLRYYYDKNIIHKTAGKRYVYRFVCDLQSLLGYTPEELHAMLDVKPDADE
Technique: protein-binding microarray
Molecule type: double-stranded DNA, one strand shown
Medium: in vitro
Tested at: not given
Notes: k-mer, scored over probes, only values ≥0.25
Reading: higher = stronger binding
With `CGGAAACC` the E-score was 0.472.
`GAAATGGA` has an E-score of 0.3.
For `ACATCCGA`, the E-score was 0.432.
With `ACCGGTTG` the E-score was 0.296.
The E-score of `GAAGCCAC` is reported as 0.262.
`ACAGGACA` gave an E-score of 0.353.
`ATTTCCTG` gave an E-score of 0.478.
`GGGGAAAC` gave an E-score of 0.318.
`AGCATCCC` has an E-score of 0.255.
For `GGAACGGA`, the E-score was 0.316.
`GGTAGGAA` gave an E-score of 0.347.
The E-score of `CACCGGTA` is reported as 0.314.
`ACCGGGAT` has an E-score of 0.368.
`ACGTTTCC` gave an E-score of 0.404.
`CGGGCGGA` has an E-score of 0.38.
With `CCACTTCC` the E-score was 0.468.
For `CTTCCGTA`, the E-score was 0.428.
The E-score of `ACGGATAT` is reported as 0.439.
With `CATCCGTA` the E-score was 0.412.
The E-score of `CCCTCCGG` is reported as 0.267.
For `CCCGTCAC`, the E-score was 0.267.
For `ATATCCGG`, the E-score was 0.485.
`ACGGATGG` has an E-score of 0.393.
`GGAAGTTA` has an E-score of 0.448.
For `CCTCCGCA`, the E-score was 0.253.

Sample 2
Target: RING finger protein unkempt homolog, zinc fingers 1-6, GST-SBP tag (UNK, Homo sapiens, UniProt Q9C0B0, residues 30-357)
Chain of UniProt Q9C0B0 (30-357, looked up): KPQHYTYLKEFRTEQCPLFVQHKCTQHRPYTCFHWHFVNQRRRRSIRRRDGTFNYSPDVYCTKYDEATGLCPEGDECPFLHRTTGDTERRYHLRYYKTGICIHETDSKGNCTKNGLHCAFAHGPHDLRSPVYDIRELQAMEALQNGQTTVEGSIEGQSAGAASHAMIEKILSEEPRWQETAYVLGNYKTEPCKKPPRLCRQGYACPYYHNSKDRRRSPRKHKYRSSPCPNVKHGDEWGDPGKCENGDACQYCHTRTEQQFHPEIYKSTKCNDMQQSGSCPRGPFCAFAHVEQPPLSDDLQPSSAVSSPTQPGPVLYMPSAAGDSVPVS
Technique: RNA Bind-n-Seq
Molecule type: RNA
Medium: in vitro
Tested at: not given
Notes: RNA with constant flanks, ends assumed
Baseline: input RNA pool
Reading: higher = stronger binding
`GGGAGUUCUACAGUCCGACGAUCUUUUUAUUAUACAUUUAUUUUUUGUCGUUAUAUACUGGUGUGUGAUCCAAGUUAUACAUGAACCGAAAAAGAUGGUGUUAAAUUUGUGUGUAGGCUGGGAAUUCUUGCUGAAGGAAUUGGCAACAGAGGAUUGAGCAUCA` gave a bound/input enrichment of 0.476 ratio.
The bound/input enrichment of `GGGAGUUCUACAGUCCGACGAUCGAUAUGAAACAUUGGCCCUUUAUGGUGGUGAAUGAUGCUGGCAGGCCCAAGGUCCAAGCCGAAUACAAGGGAGAGACCAAAAGCUUCUAUCCAGAGGAGGUGUCUUCUAUGGUUCUGACACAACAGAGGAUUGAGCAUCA` is reported as 0.232 ratio.
For `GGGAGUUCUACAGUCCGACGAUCCUCCGAUUUGGAAAAACUAAACAUCUCUCCUGGAGUUCUGGGCAGAGAGAAAACCAGCCGUCAUUUUCUUCGGAACUGUGGAAUGUACCCUUGGGAGUCCCACAAAUCAGGCAGAAGAUGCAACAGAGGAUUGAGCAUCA`, the bound/input enrichment was 0.134 ratio.
`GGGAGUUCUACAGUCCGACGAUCGGGUACGAUGUUUUGGCUAAUCCCCCAGGACCAGAAGACCCAGAUGAGGAAGAGGAUACCUACCGCGAUUUGUUUGAGUUUGAGUUUGCUGAAAGCUCCCUCUUGCCGUGUUAUAACAUCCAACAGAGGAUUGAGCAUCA` has a bound/input enrichment of 0.174 ratio.
For `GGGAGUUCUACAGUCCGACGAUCGACUUAGAUAAUUCUUUGGAAGUGAAGGCUAAGCCUGCUUCUGGCCUAGAUGGUAAUUUCAACCGCAUCCGAAUGGAUAUGUUCAGUGUGUAGGAGUGAAGACAGGAUCCCGUGCUUAAACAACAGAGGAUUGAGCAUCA`, the bound/input enrichment was 0.598 ratio.
`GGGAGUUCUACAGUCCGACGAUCCCCCACAUACCAUCUGUAGAGUUGGAACUGCAUUCUUUUAAAGUUUUAUAUGCAUAUAUUUCCGGGCUGUAGACUUACUUUCCUAUUUUCUUUUCCAUUGCUUAUUCUUGAGCACAAAAUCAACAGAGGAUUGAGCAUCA` gave a bound/input enrichment of 1.01 ratio.
`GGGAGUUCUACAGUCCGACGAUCUUUGCUGAACUGGAUAAAGUAAUGGGCCCUCUCAUCUUUAAUGCAAGCAUCAUGACAGAUCCCGUUCGUUAUACCCGGCAGGGACUGCACUGGCUUCGCCAGGAUGCCAAGUUGAUAUCUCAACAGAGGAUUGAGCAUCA` gave a bound/input enrichment of 0.174 ratio.
`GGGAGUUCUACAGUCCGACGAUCGGGUCUACUAUAUGUAAAAAGUAUACAUAUAAAAAUAUAUAUAUAUAAUGUUUGUUUAAAACCGAGUAUUUUUAUUUCCUCCCUAACUCAUCAUUGAAGAGGUGAUAUUACACUUCAGAUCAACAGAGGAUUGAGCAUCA` gave a bound/input enrichment of 0.409 ratio.

Sample 3
Target: Interferon regulatory factor 3, full length, phosphomimetic (IRF3, Homo sapiens, UniProt Q14653, residues 1-427, S386D/S396D/S398D/S402D/T404D/S405D)
Technique: protein-binding microarray
Molecule type: double-stranded DNA, one strand shown
Medium: in vitro
Tested at: 2540 nM top
Notes: 60-bp whole probe
With: salmon DNA 0.4 mg/ml
Baseline: random background probes
Reading: higher = stronger binding
Constant ends, left off below: GCCTAGCAC … GTCTTGATTCGCTTGACGCTGCTG
Target sequence (chain): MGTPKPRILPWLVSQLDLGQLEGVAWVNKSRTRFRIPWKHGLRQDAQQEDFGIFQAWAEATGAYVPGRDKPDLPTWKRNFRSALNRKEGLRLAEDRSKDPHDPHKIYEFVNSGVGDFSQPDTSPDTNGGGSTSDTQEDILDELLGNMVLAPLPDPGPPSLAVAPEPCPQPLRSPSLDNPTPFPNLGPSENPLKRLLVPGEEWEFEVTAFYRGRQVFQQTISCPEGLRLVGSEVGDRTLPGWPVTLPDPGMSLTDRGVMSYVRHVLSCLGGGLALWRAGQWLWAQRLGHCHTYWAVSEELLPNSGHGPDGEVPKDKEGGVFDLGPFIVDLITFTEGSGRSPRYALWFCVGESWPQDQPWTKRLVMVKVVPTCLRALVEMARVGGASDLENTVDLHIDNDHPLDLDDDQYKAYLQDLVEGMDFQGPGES
For `TCATCGATTTCTCTTTCCACTGTGCTA`, “fitted relative affinity” read 2.28 z-score.
`GACGATCTCTGTATCGAGACGTGCTAG` — result for “fitted relative affinity”: 0.78 z-score.
`GACGGTATCGTGTATCGGGACGTGCTA`: “fitted relative affinity” 0.91 z-score.
`TCAGCTTTCTCTTTCATACTGTGCTAG`: “fitted relative affinity” 3.35 z-score.
For `TTAGATCTCAGTCTCGGTTAGTGCTAG`, “fitted relative affinity” read 0.773 z-score.
`TTAGGACTGAGACTGGGTTAGTGCTAG` — result for “fitted relative affinity”: -0.716 z-score.
`TTAGGACTGGACACTGGGCTAGTGCTA`: “fitted relative affinity” -0.664 z-score.
For `TTTGATATCAGTTTCGATTAGTGCTAG`, “fitted relative affinity” read 5.11 z-score.
For `TCACCTGTGCTATTTATAACTGTGCTA`, “fitted relative affinity” read 0.372 z-score.
`GTGTGTTTGAGTCTTCTCCTGTGCTAG` — result for “fitted relative affinity”: -0.458 z-score.
`GACTGTTTCGACACTGGGGACGTGCTA` — result for “fitted relative affinity”: 2.62 z-score.
`TTAGGTCTCCATCTCCTTTAGTGCTAG`: “fitted relative affinity” 2.77 z-score.
Under “fitted relative affinity”, `GACGATATCGGGTTTAGAGACGTGCTA` is recorded as 0.417 z-score.
For `GACGGACTGCTTATCCTCACGTGCTAG`, “fitted relative affinity” read -0.306 z-score.
`GTCTCTTGTTCTCTCTGGCCGTGCTAG` — result for “fitted relative affinity”: 0.43 z-score.
`TTAGGACTGGGTATCGGGTAGTGCTAG` — result for “fitted relative affinity”: -0.39 z-score.
`GCACGGCTCGTTATCCTATAGTGCTAG`: “fitted relative affinity” 0.258 z-score.
`GGTGATTTCAGTTTTCTTTTGTGCTAG`: “fitted relative affinity” 4.85 z-score.
`TTAGGACTGATACTGCTTTAGTGCTAG` — result for “fitted relative affinity”: -0.0329 z-score.

Sample 4
Target: Phosphate system positive regulatory protein PHO4, full length, GST-tagged (PHO4, Saccharomyces cerevisiae, UniProt P07270, residues 1-312)
Technique: competition protein-binding microarray
Molecule type: double-stranded DNA, one strand shown
Medium: in vitro
Tested at: 2 µM
Notes: whole 60-bp probe, lowest competitor level
With: Cbf1 competitor, 0.05 µM
Reading: higher = stronger binding
Target sequence (chain): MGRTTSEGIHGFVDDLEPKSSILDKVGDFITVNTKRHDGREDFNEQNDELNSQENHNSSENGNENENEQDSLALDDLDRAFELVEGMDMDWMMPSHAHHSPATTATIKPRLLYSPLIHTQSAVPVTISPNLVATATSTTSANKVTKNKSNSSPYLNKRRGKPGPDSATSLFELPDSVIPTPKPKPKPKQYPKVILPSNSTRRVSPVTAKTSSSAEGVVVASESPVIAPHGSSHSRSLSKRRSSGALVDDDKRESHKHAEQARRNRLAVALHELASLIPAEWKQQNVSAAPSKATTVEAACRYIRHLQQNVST
With `TGCGCAACAACTTGCGCAGTGGGTGTATGTCTAGAAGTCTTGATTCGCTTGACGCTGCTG` the fluorescence intensity was 5130 a.u.
With `GTCTTGTCTCATTGTAGCGTGGGTGTCCCCACTTCAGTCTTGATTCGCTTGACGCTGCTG` the fluorescence intensity was 7120 a.u.
`CATACCCAACCTTGTACCGTGGGTGAAGATATTTGTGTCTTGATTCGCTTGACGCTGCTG` gave a fluorescence intensity of 6620 a.u.
The fluorescence intensity of `CAACAACTGCTGATTCTCGTGATGGGAGAAATTAGCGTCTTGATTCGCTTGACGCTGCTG` is reported as 6160 a.u.
For `CCATTACCCGCAAAGCACGTGAGGAAAAAATCAATTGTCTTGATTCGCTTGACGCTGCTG`, the fluorescence intensity was 16100 a.u.
`GCCAGAGAGTTATTTCACGTGCTTTGTTCGGCCCGCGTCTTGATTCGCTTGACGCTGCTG` gave a fluorescence intensity of 13500 a.u.
`TGTAGAGCAAACCGTAGTGGTAATAGTGGTTGTTGAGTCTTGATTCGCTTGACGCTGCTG` has a fluorescence intensity of 3730 a.u.
With `CGGGGTTAAGTTTGTCACAGTACTTGCTTGCAGCAGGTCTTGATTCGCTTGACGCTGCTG` the fluorescence intensity was 3680 a.u.
`CTAACGAAGGTTTGGTGGGTGGGTGACAAGCCAAGTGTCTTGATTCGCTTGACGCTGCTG` gave a fluorescence intensity of 4110 a.u.
For `CGATAGGTATAGGATCAGGCTTCACACTTAGTGTTTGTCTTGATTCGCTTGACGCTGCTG`, the fluorescence intensity was 3160 a.u.
`AAAGCGGTAATTTGTGACGTGGGTGCAGATATCTATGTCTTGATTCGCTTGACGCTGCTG` has a fluorescence intensity of 6070 a.u.
For `AAAAATATGCATTTTCTCATGACAAATTCATTCGGAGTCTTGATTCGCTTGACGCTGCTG`, the fluorescence intensity was 3780 a.u.
`TCCCAAGACCATACCCACGATGAAATTAAAGACACTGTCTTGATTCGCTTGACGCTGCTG` gave a fluorescence intensity of 7950 a.u.
`CGGGGTTAAGTTTGCCTGGTGGGTGGCTTGCAGCAGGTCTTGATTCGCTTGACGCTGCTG` gave a fluorescence intensity of 3970 a.u.
With `AAGGTATTGATAACCTGCGTGACGGTCTGGTGGAATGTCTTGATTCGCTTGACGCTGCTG` the fluorescence intensity was 6550 a.u.
`CTTCTGTAAATTTGCACAGTGGGTGGACGCGCCCCGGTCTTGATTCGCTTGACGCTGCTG` has a fluorescence intensity of 3610 a.u.
The fluorescence intensity of `GTCTTGTCTCATTGTCACTAAACTTTCCCCACTTCAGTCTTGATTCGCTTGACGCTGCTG` is reported as 3960 a.u.
The fluorescence intensity of `ATCATACCACAGTACCCCGTGGAGTTAATGTTTAACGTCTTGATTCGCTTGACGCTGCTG` is reported as 11700 a.u.
With `CGGCCGCTGGCAGAGCACATGCGCCGTACGTCCATAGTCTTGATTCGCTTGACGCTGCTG` the fluorescence intensity was 8410 a.u.

Repeated from above (sample 1):
`ATTTCCTG` gave an E-score of 0.478.
`GGGGAAAC` gave an E-score of 0.318.
`AGCATCCC` has an E-score of 0.255.
For `GGAACGGA`, the E-score was 0.316.
`GGTAGGAA` gave an E-score of 0.347.
The E-score of `CACCGGTA` is reported as 0.314.
`ACCGGGAT` has an E-score of 0.368.
`ACGTTTCC` gave an E-score of 0.404.
`CGGGCGGA` has an E-score of 0.38.
With `CCACTTCC` the E-score was 0.468.
For `CTTCCGTA`, the E-score was 0.428.
